Measured values pooled from the literature.
Each line is one published result; not all experiments were run side by side. Values joined by “and” are separate records of one study, mostly repeats; a detail may differ.
Cell line: HepG2

`CC(F)(F)CCCNC[C@H](O)c1cc(Cl)cc2c1-c1ccc(Cl)cc1C2` has a CC50 of 4.1 µM (cell growth or viability; 48 h).
For `CCc1cc(CCC(=O)O)nc(-c2nc(=O)c3ccc(F)cc3s2)c1`, the CC50 was over 25 µM (cell growth or viability).
For `O=C1C(NCCc2cc(Br)c(O)c(Br)c2)=CC2=NCCc3c[nH]c1c32`, the CC50 was 18 µM (cell growth or viability, MTT; 72 h).
The CC50 of `Cc1ccc2c(=O)n3c(nc2c1)C(=O)c1cc(Cl)ccc1-3` is reported as 0.06 to 0.08 µM (cell growth or viability, ATP luminescence).
`O=C1C(=O)c2[nH]cc3c2C(=C1Cl)NCC3` has a CC50 of 12.5 µM (cell growth or viability, MTT; 72 h).
`CCc1cc(CCN)nc(-c2nc(=O)c3ccc(F)cc3s2)c1` gave a CC50 of over 25 µM (cell growth or viability).
`COc1c(Br)cc(CCNC2=CC3=NCCc4c[nH]c(c43)C2=O)cc1Br` gave a CC50 of 2 µM (cell growth or viability, MTT; 72 h).
`O=C1c2cc(Cl)ccc2-n2c1nc1ccc(Cl)cc1c2=O` has a CC50 of 11 to 24 µM (cell growth or viability, ATP luminescence).
The CC50 of `Cc1ccc2c(c1)nc(NC(=O)c1cccc(C(F)(F)F)c1)n2[C@H]1CC[C@H](N)CC1` is reported as 1.1 µM and 2.16 µM and 3.41 µM and 2.2 µM and 2.15 µM and 2.98 µM and 2.21 µM and 2.59 µM (cytotoxicity; 4 days, single replicate).
`CCOC(=O)c1cn(CC(c2c[nH]c3cc(Br)ccc23)c2c[nH]c3cc(Br)ccc23)c(C)c1C(=O)OC` gave a CC50 of over 20 µM (cell growth or viability, MTS; 24 h).
`Cc1cc(C(=O)Nc2nc3cccc(C)c3n2[C@H]2CCCCN(C(=O)/C=C/CN(C)C)C2)ccn1` has a CC50 of 6.39 µM and 9.53 µM and 8.75 µM and 9.96 µM and 14.6 µM (cytotoxicity; 4 days, single replicate).
For `O[C@@H](CNCCNC(c1ccccc1)c1ccccc1)c1cc(Cl)cc2c1-c1ccc(Cl)cc1C2`, the CC50 was 3.2 µM (cell growth or viability; 48 h).
With `O=C1C(NCCc2ccc(O)cc2)=CC2=NCCc3c(Br)[nH]c1c32` the CC50 was 5 µM (cell growth or viability, MTT; 72 h).

Excerpt of the above:
The CC50 of `Cc1ccc2c(=O)n3c(nc2c1)C(=O)c1cc(Cl)ccc1-3` is reported as 0.06 to 0.08 µM (cell growth or viability, ATP luminescence).
